Assay results from different studies.
Lines come from different studies, so protocols differ. Several values in a cell are separate wells, animals, samples, runs or records. ± gives the spread as reported.
PLAT: Tissue-type plasminogen activator (PLAT, Homo sapiens, UniProt P00750)
Chain of UniProt P00750 (whole entry, looked up): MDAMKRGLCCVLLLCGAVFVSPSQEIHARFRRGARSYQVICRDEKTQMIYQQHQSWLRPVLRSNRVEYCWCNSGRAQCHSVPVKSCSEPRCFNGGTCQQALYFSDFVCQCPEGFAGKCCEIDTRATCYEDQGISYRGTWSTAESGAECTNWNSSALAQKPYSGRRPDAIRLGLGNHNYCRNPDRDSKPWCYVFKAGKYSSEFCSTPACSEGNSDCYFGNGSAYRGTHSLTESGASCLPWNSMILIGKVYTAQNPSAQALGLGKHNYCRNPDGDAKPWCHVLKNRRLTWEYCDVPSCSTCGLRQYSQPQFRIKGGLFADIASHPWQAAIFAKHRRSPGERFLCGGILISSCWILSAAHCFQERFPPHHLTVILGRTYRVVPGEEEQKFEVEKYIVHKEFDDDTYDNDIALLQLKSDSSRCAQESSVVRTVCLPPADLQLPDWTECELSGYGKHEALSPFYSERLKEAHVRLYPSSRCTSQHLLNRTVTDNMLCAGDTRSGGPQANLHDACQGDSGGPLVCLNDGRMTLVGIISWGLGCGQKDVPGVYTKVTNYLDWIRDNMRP
HDAC3: Histone deacetylase 3 (HDAC3, Homo sapiens, UniProt O15379)
Chain of UniProt O15379 (whole entry, looked up): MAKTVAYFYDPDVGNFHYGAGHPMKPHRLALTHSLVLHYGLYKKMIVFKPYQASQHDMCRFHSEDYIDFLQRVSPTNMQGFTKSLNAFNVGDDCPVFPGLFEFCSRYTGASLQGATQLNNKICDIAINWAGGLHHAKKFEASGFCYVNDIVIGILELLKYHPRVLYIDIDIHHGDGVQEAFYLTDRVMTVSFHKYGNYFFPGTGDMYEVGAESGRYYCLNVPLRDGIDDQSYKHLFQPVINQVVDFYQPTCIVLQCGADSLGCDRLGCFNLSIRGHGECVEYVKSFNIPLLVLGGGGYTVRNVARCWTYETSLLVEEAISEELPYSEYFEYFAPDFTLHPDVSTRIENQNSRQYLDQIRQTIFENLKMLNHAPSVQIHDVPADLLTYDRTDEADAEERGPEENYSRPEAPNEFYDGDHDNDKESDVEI
Lypla1: Acyl-protein thioesterase 1 (Lypla1, Mus musculus, UniProt P97823)
Chain of UniProt P97823 (whole entry, looked up): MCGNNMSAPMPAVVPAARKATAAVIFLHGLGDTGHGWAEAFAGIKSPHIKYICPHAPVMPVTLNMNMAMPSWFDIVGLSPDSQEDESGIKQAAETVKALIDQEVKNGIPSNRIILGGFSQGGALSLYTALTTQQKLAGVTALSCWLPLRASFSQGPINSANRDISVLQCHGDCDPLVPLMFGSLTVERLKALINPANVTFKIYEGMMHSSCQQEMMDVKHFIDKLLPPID
Breakpoint cluster region protein GAP domain: Breakpoint cluster region protein, GAP domain (Homo sapiens, UniProt P11274)
Chain of UniProt P11274 (whole entry, looked up): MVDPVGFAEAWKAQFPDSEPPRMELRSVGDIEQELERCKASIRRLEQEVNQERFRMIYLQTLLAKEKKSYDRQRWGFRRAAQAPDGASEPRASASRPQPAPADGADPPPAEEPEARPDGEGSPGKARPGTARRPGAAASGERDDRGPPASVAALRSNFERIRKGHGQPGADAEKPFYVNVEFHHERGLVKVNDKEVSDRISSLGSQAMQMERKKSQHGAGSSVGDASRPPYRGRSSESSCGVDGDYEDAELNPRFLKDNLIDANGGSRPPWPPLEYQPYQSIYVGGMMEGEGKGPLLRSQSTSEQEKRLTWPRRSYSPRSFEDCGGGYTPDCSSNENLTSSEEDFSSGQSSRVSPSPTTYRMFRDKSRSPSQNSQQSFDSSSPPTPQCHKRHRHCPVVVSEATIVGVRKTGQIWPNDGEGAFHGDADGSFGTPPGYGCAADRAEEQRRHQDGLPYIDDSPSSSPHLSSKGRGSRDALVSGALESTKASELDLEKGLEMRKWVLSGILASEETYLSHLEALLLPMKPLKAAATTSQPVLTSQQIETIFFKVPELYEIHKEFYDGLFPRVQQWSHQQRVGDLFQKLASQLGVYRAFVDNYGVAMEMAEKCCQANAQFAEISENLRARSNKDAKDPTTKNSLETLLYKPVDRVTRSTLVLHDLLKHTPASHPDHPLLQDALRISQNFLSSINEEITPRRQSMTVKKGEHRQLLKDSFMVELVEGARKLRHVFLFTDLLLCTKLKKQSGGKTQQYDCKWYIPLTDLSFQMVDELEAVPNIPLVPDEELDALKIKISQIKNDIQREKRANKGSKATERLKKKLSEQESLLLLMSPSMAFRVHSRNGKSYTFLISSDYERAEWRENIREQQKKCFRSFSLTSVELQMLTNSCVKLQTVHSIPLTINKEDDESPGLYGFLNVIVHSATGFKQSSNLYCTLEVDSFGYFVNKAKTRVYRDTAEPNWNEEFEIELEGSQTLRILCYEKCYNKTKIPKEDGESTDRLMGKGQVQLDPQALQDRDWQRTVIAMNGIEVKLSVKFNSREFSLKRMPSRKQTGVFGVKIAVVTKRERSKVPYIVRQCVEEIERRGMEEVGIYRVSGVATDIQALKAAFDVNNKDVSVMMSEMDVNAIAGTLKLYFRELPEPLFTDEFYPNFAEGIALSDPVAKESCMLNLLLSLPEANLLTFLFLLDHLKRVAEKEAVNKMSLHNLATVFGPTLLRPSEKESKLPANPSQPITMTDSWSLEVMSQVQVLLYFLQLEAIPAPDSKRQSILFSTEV
DRD4: D(4) dopamine receptor (DRD4, Homo sapiens, UniProt P21917)
Chain of UniProt P21917 (whole entry, looked up): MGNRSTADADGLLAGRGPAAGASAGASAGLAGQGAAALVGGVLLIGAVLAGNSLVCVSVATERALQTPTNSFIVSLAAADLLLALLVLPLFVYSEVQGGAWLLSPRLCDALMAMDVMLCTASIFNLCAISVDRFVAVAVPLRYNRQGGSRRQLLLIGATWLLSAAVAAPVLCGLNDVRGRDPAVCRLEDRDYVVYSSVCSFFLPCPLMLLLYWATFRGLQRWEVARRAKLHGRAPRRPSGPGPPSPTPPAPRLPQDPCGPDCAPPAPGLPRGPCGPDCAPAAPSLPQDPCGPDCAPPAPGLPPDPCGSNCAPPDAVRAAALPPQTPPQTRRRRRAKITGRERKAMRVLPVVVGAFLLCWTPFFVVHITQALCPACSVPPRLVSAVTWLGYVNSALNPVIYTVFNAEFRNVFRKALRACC
Platelet-activating factor acetylhydrolase 2, cytoplasmic: Platelet-activating factor acetylhydrolase 2, cytoplasmic (Mus musculus, UniProt Q8VDG7)
Chain of UniProt Q8VDG7 (whole entry, looked up): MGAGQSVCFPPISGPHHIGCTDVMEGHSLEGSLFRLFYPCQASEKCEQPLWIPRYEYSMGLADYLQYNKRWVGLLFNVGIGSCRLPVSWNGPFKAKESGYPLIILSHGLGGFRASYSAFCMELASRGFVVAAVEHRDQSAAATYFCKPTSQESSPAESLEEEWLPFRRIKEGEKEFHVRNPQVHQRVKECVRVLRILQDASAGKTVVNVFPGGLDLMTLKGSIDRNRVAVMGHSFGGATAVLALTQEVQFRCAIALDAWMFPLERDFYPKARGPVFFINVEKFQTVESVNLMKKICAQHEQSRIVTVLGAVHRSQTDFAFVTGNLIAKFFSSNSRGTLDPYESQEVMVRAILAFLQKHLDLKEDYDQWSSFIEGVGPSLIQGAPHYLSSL
ADRA1A: Alpha-1A adrenergic receptor (ADRA1A, Homo sapiens, UniProt P35348)
HDAC8: Histone deacetylase 8 (HDAC8, Homo sapiens, UniProt Q9BY41)
PARP1: Poly [ADP-ribose] polymerase 1 (PARP1, Homo sapiens, UniProt P09874)
Chain of UniProt Q9UM07 (whole entry, looked up): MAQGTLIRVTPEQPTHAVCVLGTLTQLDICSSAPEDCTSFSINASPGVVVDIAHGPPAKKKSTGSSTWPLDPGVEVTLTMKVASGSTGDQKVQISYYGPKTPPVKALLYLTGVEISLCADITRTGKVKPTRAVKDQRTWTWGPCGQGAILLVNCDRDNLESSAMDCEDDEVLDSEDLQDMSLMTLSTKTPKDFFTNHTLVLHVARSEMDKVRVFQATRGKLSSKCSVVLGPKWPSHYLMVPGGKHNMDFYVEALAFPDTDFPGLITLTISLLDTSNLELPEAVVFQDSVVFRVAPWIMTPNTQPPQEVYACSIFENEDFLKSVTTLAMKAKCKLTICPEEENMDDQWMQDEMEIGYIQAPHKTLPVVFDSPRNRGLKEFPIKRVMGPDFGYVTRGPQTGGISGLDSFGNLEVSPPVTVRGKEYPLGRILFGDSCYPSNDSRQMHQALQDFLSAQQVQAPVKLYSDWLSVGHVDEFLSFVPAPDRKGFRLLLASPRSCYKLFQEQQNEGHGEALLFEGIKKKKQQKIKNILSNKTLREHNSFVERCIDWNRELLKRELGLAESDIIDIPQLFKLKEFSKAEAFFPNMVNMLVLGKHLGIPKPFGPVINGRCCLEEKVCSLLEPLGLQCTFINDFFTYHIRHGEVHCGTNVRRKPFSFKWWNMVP
Chain of UniProt P09874 (whole entry, looked up): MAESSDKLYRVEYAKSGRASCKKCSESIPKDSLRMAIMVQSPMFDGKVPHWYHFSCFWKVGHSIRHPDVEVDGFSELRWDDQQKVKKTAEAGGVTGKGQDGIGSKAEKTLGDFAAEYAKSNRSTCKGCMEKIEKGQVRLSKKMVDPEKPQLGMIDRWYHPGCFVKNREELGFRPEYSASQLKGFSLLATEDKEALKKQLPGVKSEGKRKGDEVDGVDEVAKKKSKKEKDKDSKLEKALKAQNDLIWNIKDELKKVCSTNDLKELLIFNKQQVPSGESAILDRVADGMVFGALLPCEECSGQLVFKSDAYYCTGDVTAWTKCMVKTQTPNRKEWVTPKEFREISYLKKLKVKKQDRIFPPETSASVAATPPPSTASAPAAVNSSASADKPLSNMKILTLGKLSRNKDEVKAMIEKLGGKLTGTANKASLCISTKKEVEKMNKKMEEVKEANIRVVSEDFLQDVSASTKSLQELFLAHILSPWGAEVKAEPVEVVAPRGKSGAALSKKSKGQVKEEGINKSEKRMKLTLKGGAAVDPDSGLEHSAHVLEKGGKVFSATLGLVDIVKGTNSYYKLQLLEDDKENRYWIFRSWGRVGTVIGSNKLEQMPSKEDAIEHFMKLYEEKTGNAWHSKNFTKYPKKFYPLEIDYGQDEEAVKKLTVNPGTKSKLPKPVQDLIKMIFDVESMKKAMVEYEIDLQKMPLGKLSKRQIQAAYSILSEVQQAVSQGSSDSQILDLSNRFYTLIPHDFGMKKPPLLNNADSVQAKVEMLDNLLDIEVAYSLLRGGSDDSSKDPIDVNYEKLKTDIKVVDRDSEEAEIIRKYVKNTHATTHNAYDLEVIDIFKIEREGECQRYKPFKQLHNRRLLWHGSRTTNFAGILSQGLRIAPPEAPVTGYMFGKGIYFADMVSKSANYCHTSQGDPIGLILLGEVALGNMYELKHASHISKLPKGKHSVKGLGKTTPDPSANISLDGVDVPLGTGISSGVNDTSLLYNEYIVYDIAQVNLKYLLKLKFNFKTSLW

`C[Si]1(C[C@H](CN)CC(=O)O)CCCC1` gave an inhibition of -13% (ADRB1 (Homo sapiens, UniProt P08588); cell-free assay, inhibitor; 70 µM).
The inhibition of `Cl.Cl.N[C@@H](C(=O)N1CCCC1)C1CCN(c2nccc3c(-c4ncc(Cl)cc4Cl)cccc23)CC1` is reported as 2.88% and -5.05% and -0.456% (PADI4 (Homo sapiens, UniProt Q9UM07); enzyme activity, inhibitor; 19.5 nM, with: Ca2+ 0.4 mM).
The inhibition of `C[Si](C)(C)C[C@H](CN)CC(=O)O` is reported as -2% (L-type calcium channel, rat; binding, radioligand binding; 250 µM, with: [3H]diltiazem).
`C[C@@H](O)[C@H](NC(=O)c1ccc(OCc2ccccc2)cc1)C(=O)N[C@@H](CCc1ccccc1)C(=O)NCc1ccccc1Cl` gave an inhibition of 18% (PLAT; enzyme activity, inhibitor; 100 µM).
`CCCC(=O)O[C@@]1(C)CN(Cc2ccccc2)[C@H]2C[C@@H]1CC(=O)[C@@H]2C` has an inhibition of 0% (OPRK1 (Cavia porcellus, UniProt P41144); binding, radioligand binding; guinea pig brain; 1 µM, with: [3H]U-69,593).
`Cc1c(COc2cc(OCc3cccc(C#N)c3)c(CN3CCCC[C@@H]3C(=O)O)cc2Cl)cccc1-c1cccc(OCCCCCC(=O)NO)c1` has an inhibition of 93.8% (HDAC3; enzyme activity, inhibitor; 1 µM).
`COc1cc(-c2cn(C)c(=O)c3cnccc23)cc(OC)c1CN(C)C` gave an inhibition of 87.4% (BRD7 (Homo sapiens, UniProt Q9NPI1); 1 µM).
With `O=C(Nc1ccc(C(F)F)cc1)[C@H](CC1CCCCC1)Nc1nn2c(=O)ccnc2s1` the inhibition was -8% (Receptor-type tyrosine-protein phosphatase mu (Homo sapiens, UniProt P28827); enzyme activity, inhibitor; 10 µM).
`CN1CCN(C(=O)n2ccnn2)CC1` gave an inhibition of under 50% (Lypla1; 1 µM).
`CC(=O)C12NC(C)(C)CC1(C)C(=O)C1=C2c2c(c3c4n2C(C)(C)CC2=C4C4(CC(C)(C)NC(C)(C4)C2=O)CC3(C)C)C(=O)C(C)(C)N1` (single isomer, unassigned; (+)) has an inhibition of 14 ± 0.01% (SCN2A (Homo sapiens, UniProt Q99250); sodium current; HEK293T; 40 µM).
For `C[C@H](NC(=O)[C@H](CC(=O)NCC(C)(C)C)NC(=O)CCc1ccccc1)C(=O)NCc1ccccc1Cl`, the inhibition was 17% (PLAT; enzyme activity, inhibitor; 100 µM).
For `C=CC(=O)Nc1cccc(-c2cnc3[nH]cc(C(=O)NC(C)(C)C)c3n2)c1`, the inhibition was 40% (TYK2 (Homo sapiens, UniProt P29597); enzyme activity, inhibitor; 0.1 µM).
`CCCCCCC#Cc1cncc(-c2nnc(SCc3ccc(Cl)cc3)n2C)c1` has an inhibition of 6% (mraY (Staphylococcus aureus, UniProt Q2FZ93); enzyme activity, inhibitor; 100 µM).
`Cc1cccc(O[C@H]2CCC[C@@H](C(C)CNCc3ccncc3)C2)c1` (relative stereo) has an inhibition of 2% (Tyrosine-protein kinase Lyn, isoform A (LYN, Homo sapiens, UniProt P07948); kinome profiling; 1 µM).
`O=C(NCCCCc1ccccc1)n1c(=O)oc2cc(-c3ccc(F)cc3)ccc21` gave an inhibition of -0.9% (Caspase-8 (CASP8, Homo sapiens, UniProt Q14790); enzyme activity, inhibitor; 10 µM).
`Cc1ccc(C)n1-c1ccc(OCC(=O)O)cc1` gave an inhibition of 31.7% (Breakpoint cluster region protein GAP domain; GAP activity; 10 µM, selectivity counter screen).
With `C=CCN(CC=C)C(=O)n1ccnn1` the inhibition was under 50% (Lypla1; 1 µM).
`O=C1c2sc(-c3ccc(N4CCC(CO)CC4)nc3F)nc2CCN1c1cccnc1` gave an inhibition of 8% (BRS3 (Homo sapiens, UniProt P32247); ligand displacement, radioligand; 1 µM).
With `CN(Cc1ccc(/C=C/C(=O)NO)cc1)CC12CC3CC(CC(C3)C1)C2` the inhibition was -3% (MMP-1; enzyme activity; 0.05 µM).
With `Fc1cccc(OCC2CN(Cc3ncn4ccccc34)CCC2(F)F)c1` (centres unmarked) the inhibition was 48% (DRD4; ligand displacement, radioligand; 10 µM).
With `O=C(N(c1ccccc1)c1ccccc1)n1ccnn1` the inhibition was under 50% (Platelet-activating factor acetylhydrolase 2, cytoplasmic; serine hydrolase activity, inhibitor, competitive gel-based ABPP; mouse T-cell proteome; 1 µM, 30 min, 37 °C).
The inhibition of `Cc1cc(N2CCOCC2)nc2cc(Cl)ccc12` is reported as -19% (Breakpoint cluster region protein GAP domain; GAP activity; 10 µM, selectivity counter screen).
For `CCCCCCCCCCCCCCCC(=O)N[C@@H](CCCCN)C(=O)N[C@@H](CCCCN)C(=O)N[C@@H](CO)C(=O)N[C@@H](CCCNC(=N)N)C(=O)N[C@@H](C)C(=O)N[C@@H](CC(C)C)C(=O)N[C@@H](Cc1ccccc1)C(N)=O`, the inhibition was 8% (F2R (Homo sapiens, UniProt P25116); platelet aggregation, antagonist, light transmittance aggregometry; human, platelet-rich plasma ex vivo; 0.3 mg/kg, 30 min, with: SFLLRN 20 µM; relative to: baseline).
The inhibition of `N#Cc1c(Nc2ccccc2C(F)(F)F)s[nH]c1=O` is reported as 25% (PARP2 (Homo sapiens, UniProt Q9UGN5); enzyme activity, inhibitor; 10 µM).
For `c1ccc(CSc2nnc(-c3ccco3)c(-c3ccco3)n2)cc1`, the inhibition was -31.1% (Breakpoint cluster region protein GAP domain; GAP activity; 10 µM, selectivity counter screen).
For `CC1Cc2ccccc2N1C(=O)CN1CCN(c2ccccc2)CC1` (centres unmarked), the inhibition was 6.1% (HTR6 (Homo sapiens, UniProt P50406); radioligand binding; concentration not given, with: [3H]LSD).
With `O=C1c2sc(-c3ccc(N4CCC(F)C4)nc3F)nc2CCN1c1cccnc1` (centres unmarked) the inhibition was -4% (ADRA1A; ligand displacement, radioligand; 1 µM).
For `Cc1ccc(CNC(=O)[C@H](CCc2ccccc2)NC(=O)[C@H](CCc2ccccc2)NC(=O)Cc2cccc(Oc3ccccc3)c2)cc1`, the inhibition was 14% (PLAT; enzyme activity, inhibitor; 100 µM).
The inhibition of `Cc1c(OS(=O)(=O)Oc2ccccc2-c2ccccc2)cccc1C(=O)NO` is reported as 47% (HDAC8; enzyme activity, inhibitor, fluorescence; 10 µM).
`O=C(CCCc1ccc2c(c1)OCCO2)NCCNC(=O)Cn1c(=O)[nH]c(=O)c2ccccc21` has an inhibition of 0% (PARP1; enzyme activity, inhibitor; 50 nM).
With `CS(=O)(=O)Nc1cccc(-c2csc3cnc(Nc4ccc(N5CCN(CCCCCOc6cccc7c6C(=O)N(C6CCC(=O)NC6=O)C7=O)CC5)cc4)nc23)c1` (centres unmarked) the inhibition was -8.69% (PIP4K2A (Homo sapiens, UniProt P48426); probe labelling, inhibitor, KiNativ chemoproteomics; MOLT-4; 1 µM).
The inhibition of `Brc1ccccc1-c1nnc(CSc2nnnn2-c2ccccc2)o1` is reported as 10% (ADRA1A; ligand displacement, radioligand; 10 µM).
`Cc1c(COc2cc(OCc3cccc(C#N)c3)c(CNCCO)cc2Cl)cccc1-c1cccc(OCCCCCCC(=O)NO)c1` has an inhibition of 96.1% (HDAC3; enzyme activity, inhibitor; 1 µM).
For `Cc1nc2c(F)cc(-c3nc(Nc4ccc(CNC(=O)CCCCCCC(=O)NO)cc4)ncc3F)cc2n1C(C)C`, the inhibition was 57% (MOK (Homo sapiens, UniProt Q9UQ07); enzyme activity, inhibitor; 1 µM).
`CCN(CC)C(=O)n1ccnn1` has an inhibition of under 50% (Lypla1; 1 µM).
With `CCn1cc(C(=O)O)c(=O)c2c(N)c(F)c(NC3CCCCC3)cc21` the inhibition was 34.8% (Cyclin-dependent kinase 1, with cyclin B1 (CDK1, Homo sapiens, UniProt P06493); kinase activity; 0.1 µM, with: ATP at Km).
The inhibition of `O=C(n1ccnn1)n1c2ccccc2c2ccccc21` is reported as under 50% (Platelet-activating factor acetylhydrolase 2, cytoplasmic; serine hydrolase activity, inhibitor, competitive gel-based ABPP; mouse T-cell proteome; 1 µM, 30 min, 37 °C).
For `Cc1c(COc2cc(OCc3cccc(C#N)c3)c(CNC(CO)CO)cc2Cl)cccc1-c1cccc(OCc2ccc(C(=O)NO)cc2)c1`, the inhibition was 28.4% (HDAC3; enzyme activity, inhibitor; 1 µM).
With `CN(C)C(=O)n1ccnn1` the inhibition was under 50% (sn-1-specific diacylglycerol lipase ABHD11 (Mus musculus, UniProt Q8K4F5); serine hydrolase activity, inhibitor, competitive gel-based ABPP; mouse T-cell proteome; 1 µM, 30 min, 37 °C).
The inhibition of `OCC1OC(n2cnc3c(NCc4ccc(Br)s4)ncnc32)C(O)C1O` (centres unmarked) is reported as 63% (SLC29A1 (Homo sapiens, UniProt Q99808); ligand displacement, radioligand; 0.3 µM).
`O=C(N1CCOCC1)n1ccnn1` has an inhibition of over 95% (Platelet-activating factor acetylhydrolase 2, cytoplasmic; serine hydrolase activity, inhibitor, competitive gel-based ABPP; mouse T-cell proteome; 1 µM, 30 min, 37 °C).
The inhibition of `CCCCCCN(O)C(=O)CCCCC[C@@H]1NC(=O)[C@H]([C@@H](C)CC)NC(=O)[C@H](Cc2ccccc2C(F)(F)F)NC(=O)CCSCc2cccc(n2)CSCCCNC1=O` is reported as 15% (HDAC8; enzyme activity, inhibitor, fluorogenic; 30 µM).
`Cc1cc(C(=O)NCCNC(=O)c2cccc(COc3ccccc3C(N)=O)c2)n[nH]1` has an inhibition of 5% (PARP1; enzyme activity, inhibitor; 5 nM).
For `C=CC(=O)Nc1cc(-c2nn(C3CCN(CCNC(=O)[C@H](C)CCC45CC6CC(CC(C6)C4)C5)CC3)c3ncnc(N)c23)ccc1Oc1ccccc1`, the inhibition was 22.6% (KSR1 (Homo sapiens, UniProt Q8IVT5); inhibitor, KiNativ profiling; biochemical; 2 µM).
For `CN(C)C/C=C/C(=O)Nc1ccc2nc(NCCCCCN(C)C)nc(NCCCCCCN(C)C)c2c1`, the inhibition was 3% (DNMT1 (Homo sapiens, UniProt P26358); enzyme activity, inhibitor, radiometric; 10 µM).
With `O=C(CC1CC2CCC1C2)NCCNC(=O)Cn1c(=O)[nH]c(=O)c2ccccc21` (centres unmarked) the inhibition was 7% (PARP1; enzyme activity, inhibitor; 50 nM).
For `Cc1c(COc2cc(OCc3cccc(C#N)c3)c(CN3CCCC[C@H]3C(=O)O)cc2Cl)cccc1-c1cccc(OCc2ccc(/C=C/C(=O)NO)cc2)c1`, the inhibition was 3.14% (HDAC3; enzyme activity, inhibitor; 1 µM).
`FC1(F)CCN(Cc2cn3ccccc3n2)CC1COc1cccc(Cl)n1` (centres unmarked) gave an inhibition of 48% (DRD4; ligand displacement, radioligand; 10 µM).
With `CC(=O)NCCNCc1cc(Cl)c(OCc2cccc(-c3cccc(OCc4ccc(/C=C/C(=O)NO)cc4)c3)c2C)cc1OCc1cccc(C#N)c1` the inhibition was 20.2% (HDAC3; enzyme activity, inhibitor; 1 µM).
`COc1ccc2nc(C)ccc2c1Nc1sn(C)c(=O)c1C#N` has an inhibition of 3% (PARP1; enzyme activity, inhibitor; 10 µM).
